# Experimental data of several laboratories.
# Protocols differ between the studies behind these lines. Several values in a cell are separate wells, animals, samples, runs or records.
# UniProt P46934, sequence (whole entry, looked up): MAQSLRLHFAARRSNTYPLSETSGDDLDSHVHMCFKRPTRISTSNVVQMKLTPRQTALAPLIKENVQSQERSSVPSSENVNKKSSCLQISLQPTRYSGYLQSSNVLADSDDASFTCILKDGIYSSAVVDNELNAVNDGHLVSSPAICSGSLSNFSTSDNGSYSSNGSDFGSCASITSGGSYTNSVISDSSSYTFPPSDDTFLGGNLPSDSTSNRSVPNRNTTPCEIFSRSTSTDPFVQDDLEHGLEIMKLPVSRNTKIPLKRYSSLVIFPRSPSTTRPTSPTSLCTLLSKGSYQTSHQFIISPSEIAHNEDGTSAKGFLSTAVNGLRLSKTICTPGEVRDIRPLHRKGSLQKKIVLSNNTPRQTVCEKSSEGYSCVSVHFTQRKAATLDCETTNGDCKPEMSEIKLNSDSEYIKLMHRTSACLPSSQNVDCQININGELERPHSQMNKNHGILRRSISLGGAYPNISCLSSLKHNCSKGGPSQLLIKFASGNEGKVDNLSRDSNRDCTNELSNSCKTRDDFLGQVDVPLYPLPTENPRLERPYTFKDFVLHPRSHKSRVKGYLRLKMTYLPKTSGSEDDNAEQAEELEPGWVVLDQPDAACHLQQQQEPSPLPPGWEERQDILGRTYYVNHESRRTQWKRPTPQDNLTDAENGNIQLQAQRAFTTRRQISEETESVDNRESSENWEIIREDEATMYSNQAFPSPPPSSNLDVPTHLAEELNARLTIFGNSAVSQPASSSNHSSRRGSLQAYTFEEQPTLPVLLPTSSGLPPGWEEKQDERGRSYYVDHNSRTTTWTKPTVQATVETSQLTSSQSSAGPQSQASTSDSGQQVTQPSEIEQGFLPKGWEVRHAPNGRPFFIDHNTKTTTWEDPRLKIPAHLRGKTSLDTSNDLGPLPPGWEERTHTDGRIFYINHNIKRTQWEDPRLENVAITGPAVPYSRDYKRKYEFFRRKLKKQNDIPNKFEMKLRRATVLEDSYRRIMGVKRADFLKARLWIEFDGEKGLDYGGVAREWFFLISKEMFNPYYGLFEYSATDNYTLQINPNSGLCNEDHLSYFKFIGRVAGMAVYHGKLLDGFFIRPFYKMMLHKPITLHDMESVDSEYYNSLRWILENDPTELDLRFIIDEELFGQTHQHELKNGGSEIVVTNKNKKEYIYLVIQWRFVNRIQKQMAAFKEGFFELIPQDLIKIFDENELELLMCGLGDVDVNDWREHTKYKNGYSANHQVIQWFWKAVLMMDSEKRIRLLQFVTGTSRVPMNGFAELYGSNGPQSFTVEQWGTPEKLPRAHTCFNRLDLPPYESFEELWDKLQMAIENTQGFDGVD
# UniProt P41145, sequence (whole entry, looked up): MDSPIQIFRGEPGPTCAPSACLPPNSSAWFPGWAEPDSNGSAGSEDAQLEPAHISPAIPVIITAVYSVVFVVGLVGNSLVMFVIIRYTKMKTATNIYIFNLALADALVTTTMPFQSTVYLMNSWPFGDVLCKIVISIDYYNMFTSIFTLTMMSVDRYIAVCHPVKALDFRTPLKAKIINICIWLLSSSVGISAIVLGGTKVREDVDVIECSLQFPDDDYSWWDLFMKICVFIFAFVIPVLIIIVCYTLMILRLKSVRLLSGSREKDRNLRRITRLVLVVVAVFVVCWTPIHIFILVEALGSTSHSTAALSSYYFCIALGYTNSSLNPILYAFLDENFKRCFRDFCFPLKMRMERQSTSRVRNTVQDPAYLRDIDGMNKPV
SMILES,tested on,assay,system,conditions,how to read,measurement,result
C#CCN1C(=O)C(O)(C(=O)O)Oc2cc(F)ccc21 (centres unmarked),Alopecurus japonicus,fresh weight,,"150 g ai/ha, pre-emergence treatment",,inhibition,38% and 38.5% and 41.1%
Cc1cc(-c2cnc(N)c3c(-c4ccc5scnc5c4)csc23)n(C)n1,,CCK-8,"L929, mouse","12.5 µM, MEM with 10% FBS, together with: zVAD",,viability,58.9% and 62% and 56% and 61.6% and 59.6%
CCCN1C(=O)C(O)(C(=O)O)Oc2cc(F)ccc21 (centres unmarked),Oryza sativa,fresh weight,,"soil surface spray, 150 g ai/ha, 21 days, pre-emergence crop safety",,inhibition,30.8% and 29% and 28%
Cn1cc(-c2cccc(CN3CCC4(CC3)COc3c4ccc4c3CN([C@H]3CCC(=O)NC3=O)C4=O)c2)cn1,Caco-2,,,concentration not given,,permeability (apical to basolateral),2.4%
N=C(N)NCCCCCCN1CC[C@]23c4c5ccc(O)c4O[C@H]2c2[nH]c4ccccc4c2C[C@@]3(O)[C@H]1C5,"Kappa-type opioid receptor, with Gi1 (OPRK1, Homo sapiens, UniProt P41145)",,human cells,,,EC50,0.45 µM
CC(C)(C)n1nc(-c2ccc(Cl)cc2)c2c(N)ncnc21,L929,"necroptosis protection, CCK-8",,"0.313 µM, together with: TNF-α-induced",,viability,44.6%
N=C(N)NCCCCCCN1CCC23c4c5ccc(O)c4OC2c2nc4ccccc4cc2CC3(O)C1C5 (centres unmarked),,metabolic stability,"human, liver microsomes","1 µM, pH 7.4",,microsomal CLint,< 6 µL/min/mg
CCOC(=O)/C=C/CN(CCCCN1c2ccccc2CCc2ccc(Cl)cc21)Cc1ccccc1.O=C(O)/C=C\C(=O)O,"E3 ubiquitin-protein ligase NEDD4, HECT domain (Homo sapiens, UniProt P46934)","enzyme activity, inhibitor, Ub-TR-FRET",HECT domain,3.704 µM,higher = more chain formation,ubiquitin chain formation AUC,100000 a.u. and 99300 a.u. and 95500 a.u. and 111000 a.u. and 108000 a.u. and 107000 a.u.

# For quick reference, copied from above:
SMILES,tested on,assay,system,conditions,how to read,measurement,result
N=C(N)NCCCCCCN1CC[C@]23c4c5ccc(O)c4O[C@H]2c2[nH]c4ccccc4c2C[C@@]3(O)[C@H]1C5,"Kappa-type opioid receptor, with Gi1 (OPRK1, Homo sapiens, UniProt P41145)",,human cells,,,EC50,0.45 µM
